{"data": "Measured values of several laboratories", "note": "A part holds a random share of what one study measured. Positions count from the first letter of the parent shown."}
{"data": "Block 1", "target": "CCNA1, cyclin fold, Cln2 fusion (human)", "method": "yeast growth competition, sequencing", "sample": "yeast", "notes": "weak parent motif", "relative to": "not given", "reading": "higher = stronger binding", "starting sequence": "E2F1 docking peptide (human); PPVKRRLDLETDH; partner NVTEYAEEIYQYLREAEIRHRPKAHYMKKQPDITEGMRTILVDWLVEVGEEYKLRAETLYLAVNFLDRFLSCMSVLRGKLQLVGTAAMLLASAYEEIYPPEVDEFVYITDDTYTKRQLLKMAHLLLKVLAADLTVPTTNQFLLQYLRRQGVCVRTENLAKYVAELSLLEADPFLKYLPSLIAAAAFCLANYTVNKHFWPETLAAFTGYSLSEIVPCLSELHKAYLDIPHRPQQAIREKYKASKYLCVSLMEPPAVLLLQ"}
{"Variant": "H13G", "normalised enrichment score": 0.47}
{"Variant": "V3R", "normalised enrichment score": 0.597}
{"Variant": "E10S", "normalised enrichment score": 0.293}
{"Variant": "D12T", "normalised enrichment score": 0.228}
{"Variant": "L7V", "normalised enrichment score": 0.231}
{"Variant": "D12G", "normalised enrichment score": 0.41}
{"Variant": "R6H", "normalised enrichment score": 0.285}
{"Variant": "R5V", "normalised enrichment score": -0.201}
{"Variant": "D12K", "normalised enrichment score": 0.435}
{"Variant": "D12E", "normalised enrichment score": 0.557}
{"data": "Block 2", "target": "RNA binding protein fox-1 homolog 2, RRM domain, GST-SBP tag (RBFOX2, Homo sapiens, UniProt O43251-10, residues 100-194)", "method": "RNA Bind-n-Seq", "form": "RNA", "sample": "in vitro", "tested at": "365 nM", "notes": "natural RNA segment, single round, ends assumed", "relative to": "no-protein control", "reading": "higher = stronger binding", "all sequences stand within": "GGGAGUUCUACAGUCCGACGAUC … UGGAAUUCUCGGGUGCCAA", "Residues (chain)": "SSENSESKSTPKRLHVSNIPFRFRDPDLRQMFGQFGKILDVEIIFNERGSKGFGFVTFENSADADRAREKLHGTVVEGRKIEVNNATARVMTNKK"}
{"Sequence": "UGAUUCAGUUCAAAAUUAAUGCAAAUCUUUCAAAACUGGGUUUCUGAUACUUGUGGAUGUUUUUCUUCAUUAGAUAAGAAUGUAUUACCAUUAAAUCCAUUAGUAUUACA", "RBNS enrichment (R)": 0.732}
{"Sequence": "CCAGUUGUCCCGAUUGUAACUCAAAGGGUGGAAUAUCAAGGUCGUUUUUUUCAUUCCAUGUGCCCAGUUAAUCUUGCUUUCUUUGUUUGGCUGGGAUAGAGGGGUCAAGU", "RBNS enrichment (R)": 1.56}
{"Sequence": "AUGUUCCUAACAGAUUUUGCUUUUGAAAAAUGCUUGUUACAUGAAUAAUUUGUGGACCAGGGAUUGCUUUUCUGAAGGCAGUAUAGGGAACAUGAAUAUUCAAGAUGAAA", "RBNS enrichment (R)": 0.34}
{"Sequence": "GGUUGAGCUUGACAUGGAAAGGAGCAGUUGGCAGGGAAGGAACUUAUUCCCCAAGAGUGGUAACUAACCCACAGCCCUGCUCGGUGUGCCCACCGCUGAGAGGCUGCAGU", "RBNS enrichment (R)": 0.864}
{"Sequence": "UUGAAACUUGUGUAUCAUAUGUGAUUUUGAAAUGAACACCUUGAAUAGCACUAAUUUUUAUUUGUGGUAUUUUUCUAUAACAAAACAAGUAGCUCUAGGAAAAGAGGUUU", "RBNS enrichment (R)": 0.496}
{"Sequence": "AUAAGAAGCCUGUCAGUAUUGCCAUGAGACUGUUUCAUAUGGUUACUUUUCUGUAUUCCCAAGGAAUGCCUUCCUGUCUUAUUUUAGCCAAAACAAACUGGUUCCAUGCC", "RBNS enrichment (R)": 4.46}
{"Sequence": "UCUUGGGAAAGCCUCUCCUGGGGCCACUGUUGGGGGUGGGAGUGAGCCCACCACAGAGGCCACAGGCAGGCCCCCACUUCAGGCCCAAGGCCUGGGGCGGGGGGAACAGU", "RBNS enrichment (R)": 0.488}
{"Sequence": "ACCUAGCUCCUGCCGCAUGUGGCUUCAGCCUGGCCUGGCCGCCAGGGGGAGCCACUGGUUUCGCUCCUCCUGAAGGGAGCUCUGGACCCUCAGGGCCCCCACAGGGGAAG", "RBNS enrichment (R)": 0.306}
{"Sequence": "CAUCUUAAAUUCAUUUCUAGACUCAAAACCUGGAGAUGCAGCUACUGGAAUGGUGUUUUGUCAGACUUCCAAAUCCUGGAAGGACACAGUGAUGAAUGUACUAUGUCUGA", "RBNS enrichment (R)": 1.72}
{"Sequence": "GUUUUGAAGUCAUCUUAGCUUUCCACAGGAGGGAGAGAACUUAAAAAAGCAACAGUAGCAGGGAAUUGAUCCACUUCUUAAUGCUUUCCUCCCUGGCAUGACCAUCCUGU", "RBNS enrichment (R)": 3.43}
{"Sequence": "AAAGGACAACACGAGCUGGUCUUGUGUUGCUGGUUCCUAUUCAGUAUUUCCUGGGGAUUGUUUGCUUUUUAAGUGAAACACUUCUGACCAAUAGCACAGAACGUCUUAAU", "RBNS enrichment (R)": 0.203}
{"Sequence": "AGGGCUGAGCCUUCUCUUCUGUCUGCAGCCACAAUAGGCUUCCUCAGACGCUGGCUUGAGAGGAGCCCCGCACCUUGGGCACCAGGGAGUGCCAUCCGCCUCCCAGUCCG", "RBNS enrichment (R)": 0.488}
{"data": "Block 3", "target": "ABI1, truncated, D143A, DHFR fusion (Arabidopsis thaliana)", "method": "DHFR PCA, deep sequencing", "sample": "yeast", "notes": "methotrexate growth selection, single substitutions", "with": "(+)-ABA 4.8 µM", "relative to": "wild-type fitted maximum", "reading": "higher = stronger binding", "starting sequence": "PYL1, truncated, DHFR fusion (Arabidopsis thaliana); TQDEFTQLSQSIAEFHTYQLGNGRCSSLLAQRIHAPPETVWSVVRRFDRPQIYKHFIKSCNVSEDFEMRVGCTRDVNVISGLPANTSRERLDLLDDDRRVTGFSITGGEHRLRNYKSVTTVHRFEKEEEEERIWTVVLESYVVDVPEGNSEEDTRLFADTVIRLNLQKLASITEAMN; partner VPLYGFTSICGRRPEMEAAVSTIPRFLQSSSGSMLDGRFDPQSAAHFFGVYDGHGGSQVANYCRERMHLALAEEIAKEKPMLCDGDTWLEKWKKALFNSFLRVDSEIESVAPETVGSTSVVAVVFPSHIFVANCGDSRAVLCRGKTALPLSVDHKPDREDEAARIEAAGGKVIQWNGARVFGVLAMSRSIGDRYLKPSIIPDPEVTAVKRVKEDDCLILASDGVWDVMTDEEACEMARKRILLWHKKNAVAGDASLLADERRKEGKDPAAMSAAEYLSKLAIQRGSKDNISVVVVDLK"}
{"Variant": "L166D", "relative binding score [%]": -16.7}
{"Variant": "S27M", "relative binding score [%]": -0.529}
{"Variant": "E125K", "relative binding score [%]": 78.6}
{"Variant": "F5W", "relative binding score [%]": 72.3}
{"Variant": "T1K", "relative binding score [%]": 70.4}
{"Variant": "V118Y", "relative binding score [%]": 12}
{"Variant": "L29W", "relative binding score [%]": 1.6}
{"Variant": "N85M", "relative binding score [%]": 69.2}
{"Variant": "V121M", "relative binding score [%]": -4.05}
{"Variant": "V78A", "relative binding score [%]": 12.6}
{"data": "Further values, each from its own experiment"}
{"Molecule": "PhoQ, residues 284 288 289 292 302 303 QWQEDG", "target": "PhoP, residues 12 14 15 18 19 AWHSL (Escherichia coli, UniProt P23836)", "assay": "Sort-seq, measured: YFP reporter", "test system": "E. coli", "setting": "PhoQ-PhoP variant library, with: 10 µM Mg2+", "how to read": "relative to: high Mg2+ state, higher = stronger signaling", "measurement": "fold induction", "result": 3.47}
